Measurements collected from several papers.
Protocols differ between the studies behind these lines. Numbers after ± are the reported error.

SMILES | tested on | assay | system | conditions | how to read | endpoint | value
C/C(=N\Nc1ncnc2sc3c(c12)CCCC3)c1cc(O)ccc1O | BJAB | cell growth or viability, CCK-8 | – | – | – | IC50 | 0.255 µM
CC1(C)CC(=O)C2=C(C1)Oc1c(O)cccc1C2n1nnc2ccccc21 (stereo not shown) | 3T3-L1 | cell growth or viability, MTT | – | 72 h | – | IC50 | 75.8 µg/mL
CCCC[C@H](NC(C)=O)C(=O)N[C@@H](CO)C(=O)N[C@H](C(=O)N1CCC[C@H]1C(=O)N[C@]1(C)CCCCCCC=CCCC[C@@](C)(C(=O)N[C@@H](Cc2ccccc2)C(=O)N[C@@H](CCCCN)C(=O)N[C@@H](CCCNC(=N)N)C(=O)N[C@@H](CC(C)C)C(=O)N[C@@H](CCC(N)=O)C(N)=O)NC(=O)[C@H](CCCNC(=N)N)NC(=O)[C@H](CCCC)NC(=O)[C@H](CC(C)C)NC(=O)[C@H](CCCNC(=N)N)NC(=O)[C@H](CCCNC(=N)N)NC(=O)[C@H](CCCNC(=N)N)NC1=O)[C@@H](C)O | proteinase K (Tritirachium album) | proteolytic stability, LC-MS | – | 25 µM, 246.0 min, pH 7.4 | – | remaining intact peptide | 63.5%
NC(=O)c1ccc(-c2ccccc2Cl)c2c3c([nH]c12)CCC(N)C3 (stereo not shown) | BGC-823 | cell growth or viability | – | 96 h | – | IC50 | 0.024 µM
Cc1cc(C(=O)N2CCNCCNCCNCC2)c(O)c(C(=O)N2CCNCCNCCNCC2)c1 | PK-59 | cell growth or viability, MTT | – | 24 h | – | IC50 | > 10000 µM
N#Cc1c(N)nc2c(c1-c1ccc[nH]1)Cc1cc(O)ccc1-2 | HBP-ALL | cell viability, CellTiter-Glo | – | – | no inhibition at 100 µM | IC50 | 12 µM
COc1c(C)c(OS(=O)(=O)c2ccccc2)c(C)c(OS(=O)(=O)c2ccccc2)c1C(=O)/C=C/c1ccccc1 | FaDu | cell growth or viability, SRB | – | 72 h | – | IC50 | > 50 µM
CCCCCCCCCC(=O)[O][Pt]([Cl])([Cl])[O]C(=O)CCCCCCCCC.N.N | A549/DDP cisplatin-resistant | MTT | – | 48 h, with: survivin siRNA 10 nM transfected 24 h before | – | IC50 | 4.74 ± 3.03 µM
Cn1ncc(-c2ccc3c(=O)[nH]nc(CN)c3c2)c1-c1c(F)c(Cl)cc(OC2CC2)c1C#N | HCC2279 | cell viability | – | 120 h, relative IC50 | – | IC50 | 0.04 µM
CCCCCCCC(=O)[O][Pt]([Cl])([Cl])[O]C(=O)CCCCCCC.N.N | A549/DDP cisplatin-resistant | MTT | – | 48 h, with: survivin siRNA 10 nM transfected 24 h before | – | IC50 | 0.73 ± 0.82 µM
Nc1ncc(-c2cc(-c3cnn(CC(F)(F)F)c3)ncc2F)nc1C(=O)NC1CNCC(F)C1 (stereo not shown) | HCK | KINOMEscan | – | 1 µM | relative to: DMSO control | remaining binding | 80%
O=C1CCCC2=C1C(c1c[nH]c3ccccc13)c1cc(Br)ccc1O2 (stereo not shown) | 3T3-L1 | cell growth or viability, MTT | – | 72 h | – | IC50 | > 100 µg/mL
CC(=O)[O][Pt]([NH2])([NH2])([Cl])([Cl])[O]C(=O)CCC(C)C1CCC2C3CCC4CC(O)CCC4(C)C3CCC12C (stereo not shown) | RWPE-1 normal prostate | cell viability, MTT | – | 72 h | – | IC50 | 4.3 ± 0.3 µM
O=C(Nc1cc(-c2ccnc3[nH]ccc23)c(Cl)cn1)[C@H]1CCC[C@@H](NC(=O)C(F)(F)F)C1 | JeKo-1 | cell growth or viability | – | 72 h | – | IC50 | 0.0255 µM
CCOc1cncc(-c2ccc(NC(=O)C3(c4ccnc(NS(=O)(=O)C5CC5)n4)CCOCC3)nc2)n1 | lung cancer | cell viability, CellTiter-Glo | DMSO 0.1% | 72 h, line code 1647 | – | IC50 | 0.522 µM
O=C(OCc1ccc(O[C@@H]2O[C@H](COC(=O)c3ccc(O)cc3)[C@@H](O)[C@H](O)[C@H]2O)cc1)c1ccc(O)cc1 | T47D breast cancer | cell viability, MTT | DMEM with 10% FBS | 48 h | – | IC50 | > 200 µM
CCn1nc(Cl)c2c1-c1cnc(N)c(c1)O[C@H](C)c1cc(F)ccc1-c1nn(C)cc1C2 | Ba/F3 EML4-ALK variant 1 S1206Y | cell viability | – | – | – | IC50 | 0.00227 µM
COc1ccc(C(=O)OC2CCN(C)CC2)cc1 | Trypanosoma cruzi | reporter mRNA translation, inhibitor, item: Renilla luciferase mRNA | cell-free extract | concentration not given, test 1 | relative to: positive over negative control | translation activity | 99.7%
CC(C)=CC1OC(C)(C)C2C=C3C(=O)C(Cl)=CC(O)C3C3C(O)C4OC4C(=O)C132 (stereo not shown) | BGC-823 | cell growth or viability, MTS | – | – | – | IC50 | 3.21 µM

SMILES | tested on | assay | system | conditions | how to read | endpoint | value
COC1CN([C@H]2CC[C@H]([C@@]3(C)Oc4c(Cl)cc(C(=O)NCc5c(SC)cc(C)[nH]c5=O)c(C)c4O3)CC2)C1 | – | RNA-seq, item: FHDC1 | human, whole blood | dose not given, 24 h | relative to: pretreatment baseline | log2 fold change | 2.12
CCOc1cc(CN2CCCC(CNC(=O)c3ccc(F)cc3)C2)ccc1OC (stereo not shown) | Trypanosoma cruzi | reporter mRNA translation, inhibitor, item: Renilla luciferase mRNA | cell-free extract | concentration not given, test 1 | relative to: positive over negative control | translation activity | 83.5%
COc1cc(-c2cc(C(C)=O)n3ccccc23)c(OC)cc1Cn1ccnc1 | Kasumi 1 | cell growth or viability, ATP luminescence | – | – | – | IC50 | 0.057 µM
CC1(C)CC(=O)C2=C(C1)Oc1ccc3ccccc3c1C2c1c(C(=O)O)[nH]c2ccccc12 (stereo not shown) | 3T3-L1 | cell growth or viability, MTT | – | 72 h | – | IC50 | 19.4 µg/mL
CC[C@H]1CC[C@H]2[C@@H]3C[C@@H](O)[C@@]4(O)C[C@H](N)CC[C@]4(C)[C@H]3CC[C@]12C | BV-2 | cell count, high-content imaging | – | geometric mean | – | IC50 | 1.22 µM
CCCCCCCCCCCCSCC(COCC(O)C[N+](C)(C)CCN)SCCCCCCCCCCCC (stereo not shown) | BHK-21 | cell growth or viability, MTT | – | – | – | IC50 | 144 µM
C=CC(=O)Nc1cccc(Cn2ncc3cnc(Nc4cnn(CCOC)c4)nc32)c1 | CDK8 human | binding, KINOMEscan | – | 100 nM | lower = stronger binding | percent of control | 93%
CN1CCCNC(=O)c2cccc(c2)C(=O)NCCCN(C)CCCNc2cccc3c2C(=O)c2cccc(c2C3=O)NCCC1 | SAS | RNA-Seq, item: AASDHPPT mRNA | – | 1 µM, 6 h | relative to: untreated cells | log2 fold change | 0.494
CC(=O)NCCOCCOCCNC(=O)c1cc(C(=O)N2CCNCCNCCNCC2)c(O)c(C(=O)N2CCNCCNCCNCC2)c1 | PK-59 | cell growth or viability, MTT | – | 24 h | – | IC50 | > 1000 µM
C=C1C(=O)OC2C1CCC(C)(O)C13C=CC(C)(C21)C1(C3)C(=O)OC2C3C(C)=CCC3C(C)(O)CCC21 (stereo not shown) | AML12 | lipid accumulation, Nile Red staining | – | with: palmitate/oleate | – | IC50 | 35.9 ± 4.21 µM
CC(C)c1ccc(N(C)c2ccc3c(c2)OCC[C@H]3CNc2cnccc2C(=O)O)cc1 | KYSE-410 | cell growth or viability, ATP luminescence | – | 7 days | – | IC50 | 0.00825 µM
Cc1ncsc1-c1ccc(C(C)NC(=O)C2CC(O)CN2C(=O)C(NC(=O)CCCCCCCCCCN2CCCC(Nc3ncc(Cl)c(Nc4ccccc4S(=O)(=O)C(C)C)n3)C2)C(C)(C)C)cc1 (stereo not shown) | 22Rv1 | RNA-seq, item: RFX3 mRNA | – | concentration not given | relative to: DMSO | log2 fold change | -2.52
C=CC(=O)N1CCCC(n2c(=O)c3ncccc3n(Cc3ccc(Oc4ccccc4)cc3)c2=O)C1 (stereo not shown) | MEC1 | cell growth or viability, MTT | – | 72 h | – | IC50 | 8 µM
O=C1CCc2ccc(NS(=O)(=O)c3cccc(C(=O)c4ccccc4)c3)cc2N1 | BV-2 | PGE2 release, inhibitor | – | LPS-stimulated | – | IC50 | 0.006 µM
CNS(=O)(=O)Nc1nccc(Cc2c(C)c3ccc(Oc4ncccc4F)cc3oc2=O)c1F | SHP77 | cell viability | – | 7 days | – | IC50 | 0.0047 µM
COc1c(C)c(OC(=O)c2ccc3ccccc3c2)c(C)c(O)c1C(=O)/C=C/c1ccccc1 | FaDu | cell growth or viability, SRB | – | 72 h | – | IC50 | > 50 µM
CCCC[C@H](NC(=O)CCCCCCCNC(=O)CN1CCN(CC(=O)O)CCN(CC(=O)O)CC1)C(=O)N[C@H]1CC(=O)NCCCC[C@@H](C(N)=O)NC(=O)[C@H](Cc2c[nH]c3ccccc23)NC(=O)[C@H](CCCNC(=N)N)NC(=O)[C@@H](Cc2ccccc2)NC(=O)[C@H](Cc2c[nH]cn2)NC1=O [technetium-99m labelled] | – | – | C57 mouse, liver | intravenous, 0.037 MBq, 4 h | – | tissue uptake | 0.17 ± 0.03 %ID/g
O=C1CCC(N2C(=O)c3ccc(N4CC(C(=O)N5CC(CN6CCC(CNC(=O)c7cccc(-c8noc(C(F)(F)F)n8)c7)(c7nc(-c8ccccc8)cs7)CC6)C5)C4)cc3C2=O)C(=O)N1 (stereo not shown) | JeKo-1 | cell growth or viability | – | 7 days | – | IC50 | 1.48 µM

Some of these lines once more:
SMILES | tested on | assay | system | conditions | how to read | endpoint | value
COc1cc(-c2cc(C(C)=O)n3ccccc23)c(OC)cc1Cn1ccnc1 | Kasumi 1 | cell growth or viability, ATP luminescence | – | – | – | IC50 | 0.057 µM
CC1(C)CC(=O)C2=C(C1)Oc1ccc3ccccc3c1C2c1c(C(=O)O)[nH]c2ccccc12 (stereo not shown) | 3T3-L1 | cell growth or viability, MTT | – | 72 h | – | IC50 | 19.4 µg/mL
CC[C@H]1CC[C@H]2[C@@H]3C[C@@H](O)[C@@]4(O)C[C@H](N)CC[C@]4(C)[C@H]3CC[C@]12C | BV-2 | cell count, high-content imaging | – | geometric mean | – | IC50 | 1.22 µM
